Measured values collected from several papers.
“And” joins repeats or separate records; there may be more than shown. ± marks the error that the study gave. Square brackets hold non-standard residues; d marks the D form. Ends that are not written are not given here. * marks the point of attachment.
B1: Spy (Escherichia coli, UniProt P77754); chain ADTTTAAPADAKPMMHHKGKFGPHQDMMFKDLNLTDAQKQQIREIMKGQRDQMKRPPLEERRAMHDIIASDTFDKVKAEAQIAKMEEQRKANMLAHMETQNKIYNILTPEQKKQFNANFEKRLTERPAAKGKMPATAE
B2: Mybbp1a (Mus musculus, UniProt Q7TPV4); sequence looked up; chain MAEMKSPTKAEPATPAEAAQSDRHSLLEHSREFLDFFWDIAKPDQETRLRATEKLLEYLRTRPNDSEMKYALKRLITGLGVGREAARPCYSLALAQLLQSFEDIPLCDILDQIQEKYSLQAMNKAMMRPSLFANLFGVLALFQSGRLVKDKEALMKSVQLLKILSQHPNHLQGQPIKALVDILSEVPESMFQEILPKVLKGNMKVILRSPKYLELFLLAKQRVPTKLESLMGSVDLFSEDNIPSLVNILKVAANSVKKEHKLPNVALDLLRLALKESRFELFWKKVLEEGLLKNPSWTSSYMCFRLLGASLPLLSEEQLQLVMRGDLIRHFGENMVISKPQNLFKIIPEISTYVGTFLEGCQDDPKRQLTMMVAFTTITNQGLPVMPTFWRVTRFLNAEALQSYVAWLRDMFLQPDLNSLVDFSTANQKRAQDASLNVPERAVFRLRKWIIHRLVSLVDHLHLEKDEAVVEQIARFCLFHAFFKTKKATPQIPETKQHFSFPLDDRNRGVFVSAFFSLLQTLSVKFRQTPDLAENGKPWTYRLVQLADMLLNHNRNVTSVTSLTTQQRQAWDQMMSTLKELEARSSETRAIAFQHLLLLVGLHIFKSPAESCDVLGDIQTCIKKSMEQNPRRSRSRAKASQEPVWVEVMVEILLSLLAQPSNLMRQVVRSVFGHICPHLTPRCLQLILAVLSPVTNEDEDDNVVVTDDADEKQLQHGEDEDSDNEDNKNSESDMDSEDGEESEEEDRDKDVDPGFRQQLMEVLKAGNALGGVDNEEEEELGDEAMMALDQNLASLFKEQKMRIQARNEEKNKLQKEKKLRRDFQIRALDLIEVLVTKQPEHPLILELLEPLLNVIQHSMRSKGSTKQEQDLLHKTARIFMHHLCRARRYCHEVGPCAEALHAQVERLVQQAGSQADASVALYYFNASLYLLRVLKGNTNKRHQDGHKLHGADTEDSEDQAANCLDLDFVTRVYSASLESLLTKRNSSLTVPMFLSLFSRYPVICKNLLPVLAQHVAGPSRPRHQAQACLMLQKTLSARELRVCFEDPEWEQLITQLLGKATQTLQTLGEAQSKGEHQKELSILELLNTLLRTVNHEKLSVDLTAPLGVLQSKQQKLQQSLQQGNHSSGSNRLYDLYWQAMRMLGVQRPKSEKKNAKDIPSDTQSPVSTKRKKKGFLPETKKRKKLKSEGTTPEKNAASQQDAVTEGAMPAATGKDQPPSTGKKKRKRVKASTPSQVNGITGAKSPAPSNPTLSPSTPAKTPKLQKKKEKLSQVNGATPVSPIEPESKKHHQEALSTKEVIRKSPHPQSALPKKRARLSLVSRSPSLLQSGVKKRRVASRRVQTP
B3: CKS1 (Saccharomyces cerevisiae, UniProt P20486); sequence looked up; chain MYHHYHAFQGRKLTDQERARVLEFQDSIHYSPRYSDDNYEYRHVMLPKAMLKVIPSDYFNSEVGTLRILTEDEWRGLGITQSLGWEHYECHAPEPHILLFKRPLNYEAELRAATAAAQQQQQQQQQQQQQQQQHQTQSISNDMQVPPQIS
B4: BDKRB1 (Homo sapiens, UniProt P46663); chain MASSWPPLELQSSNQSQLFPQNATACDNAPEAWDLLHRVLPTFIISICFFGLLGNLFVLLVFLLPRRQLNVAEIYLANLAASDLVFVLGLPFWAENIWNQFNWPFGALLCRVINGVIKANLFISIFLVVAISQDRYRVLVHPMASRRQQRRRQARVTCVLIWVVGGLLSIPTFLLRSIQAVPDLNITACILLLPHEAWHFARIVELNILGFLLPLAAIVFFNYHILASLRTREEVSRTRCGGRKDSKTTALILTLVVAFLVCWAPYHFFAFLEFLFQVQAVRGCFWEDFIDLGLQLANFFAFTNSSLNPVIYVFVGRLFRTKVWELYKQCTPKSLAPISSSHRKEIFQLFWRN
B5: E2F1 (Homo sapiens, UniProt Q01094); sequence looked up; chain MALAGAPAGGPCAPALEALLGAGALRLLDSSQIVIISAAQDASAPPAPTGPAAPAAGPCDPDLLLFATPQAPRPTPSAPRPALGRPPVKRRLDLETDHQYLAESSGPARGRGRHPGKGVKSPGEKSRYETSLNLTTKRFLELLSHSADGVVDLNWAAEVLKVQKRRIYDITNVLEGIQLIAKKSKNHIQWLGSHTTVGVGGRLEGLTQDLRQLQESEQQLDHLMNICTTQLRLLSEDTDSQRLAYVTCQDLRSIADPAEQMVMVIKAPPETQLQAVDSSENFQISLKSKQGPIDVFLCPEETVGGISPGKTPSQEVTSEEENRATDSATIVSPPPSSPPSSLTTDPSQSLLSLEQEPLLSRMGSLRAPVDEDRLSPLVAADSLLEHVREDFSGLLPEEFISLSPPHEALDYHFGLEEGEGIRDLFDCDFGDLTPLDF
B6: pdeA 2-130 (Caulobacter crescentus, UniProt Q9A310); sequence looked up; chain SFRTGERRIWDATATLEALGAADVALWIWEPETDRLRLNGAARALGLGPLAPECSSAAFRALALPQDRAQAEEVLKPREPGSEVVARFRVRGGETCLWRGVWLEEGVRAAGVVAPETKFSASELCDLTG
B7: Mesd (Mus musculus, UniProt Q9ERE7); chain ADTPGEATPPPRKKKDIRDYNDADMARLLEQWEKDDDIEEGDLPEHKRPSAPIDFSKLDPGKPESILKMTKKGKTLMMFVTVSGNPTEKETEEITSLWQGSLFNANYDVQRFIVGSDRAIFMLRDGSYAWEIKDFLVSQDRCAEVTLEGQMYPGKGGGSKEKNKTKPEKAKKKEGDPKPRASKEDNRAGSRREDL
Chain of UniProt P11532 (whole entry, looked up): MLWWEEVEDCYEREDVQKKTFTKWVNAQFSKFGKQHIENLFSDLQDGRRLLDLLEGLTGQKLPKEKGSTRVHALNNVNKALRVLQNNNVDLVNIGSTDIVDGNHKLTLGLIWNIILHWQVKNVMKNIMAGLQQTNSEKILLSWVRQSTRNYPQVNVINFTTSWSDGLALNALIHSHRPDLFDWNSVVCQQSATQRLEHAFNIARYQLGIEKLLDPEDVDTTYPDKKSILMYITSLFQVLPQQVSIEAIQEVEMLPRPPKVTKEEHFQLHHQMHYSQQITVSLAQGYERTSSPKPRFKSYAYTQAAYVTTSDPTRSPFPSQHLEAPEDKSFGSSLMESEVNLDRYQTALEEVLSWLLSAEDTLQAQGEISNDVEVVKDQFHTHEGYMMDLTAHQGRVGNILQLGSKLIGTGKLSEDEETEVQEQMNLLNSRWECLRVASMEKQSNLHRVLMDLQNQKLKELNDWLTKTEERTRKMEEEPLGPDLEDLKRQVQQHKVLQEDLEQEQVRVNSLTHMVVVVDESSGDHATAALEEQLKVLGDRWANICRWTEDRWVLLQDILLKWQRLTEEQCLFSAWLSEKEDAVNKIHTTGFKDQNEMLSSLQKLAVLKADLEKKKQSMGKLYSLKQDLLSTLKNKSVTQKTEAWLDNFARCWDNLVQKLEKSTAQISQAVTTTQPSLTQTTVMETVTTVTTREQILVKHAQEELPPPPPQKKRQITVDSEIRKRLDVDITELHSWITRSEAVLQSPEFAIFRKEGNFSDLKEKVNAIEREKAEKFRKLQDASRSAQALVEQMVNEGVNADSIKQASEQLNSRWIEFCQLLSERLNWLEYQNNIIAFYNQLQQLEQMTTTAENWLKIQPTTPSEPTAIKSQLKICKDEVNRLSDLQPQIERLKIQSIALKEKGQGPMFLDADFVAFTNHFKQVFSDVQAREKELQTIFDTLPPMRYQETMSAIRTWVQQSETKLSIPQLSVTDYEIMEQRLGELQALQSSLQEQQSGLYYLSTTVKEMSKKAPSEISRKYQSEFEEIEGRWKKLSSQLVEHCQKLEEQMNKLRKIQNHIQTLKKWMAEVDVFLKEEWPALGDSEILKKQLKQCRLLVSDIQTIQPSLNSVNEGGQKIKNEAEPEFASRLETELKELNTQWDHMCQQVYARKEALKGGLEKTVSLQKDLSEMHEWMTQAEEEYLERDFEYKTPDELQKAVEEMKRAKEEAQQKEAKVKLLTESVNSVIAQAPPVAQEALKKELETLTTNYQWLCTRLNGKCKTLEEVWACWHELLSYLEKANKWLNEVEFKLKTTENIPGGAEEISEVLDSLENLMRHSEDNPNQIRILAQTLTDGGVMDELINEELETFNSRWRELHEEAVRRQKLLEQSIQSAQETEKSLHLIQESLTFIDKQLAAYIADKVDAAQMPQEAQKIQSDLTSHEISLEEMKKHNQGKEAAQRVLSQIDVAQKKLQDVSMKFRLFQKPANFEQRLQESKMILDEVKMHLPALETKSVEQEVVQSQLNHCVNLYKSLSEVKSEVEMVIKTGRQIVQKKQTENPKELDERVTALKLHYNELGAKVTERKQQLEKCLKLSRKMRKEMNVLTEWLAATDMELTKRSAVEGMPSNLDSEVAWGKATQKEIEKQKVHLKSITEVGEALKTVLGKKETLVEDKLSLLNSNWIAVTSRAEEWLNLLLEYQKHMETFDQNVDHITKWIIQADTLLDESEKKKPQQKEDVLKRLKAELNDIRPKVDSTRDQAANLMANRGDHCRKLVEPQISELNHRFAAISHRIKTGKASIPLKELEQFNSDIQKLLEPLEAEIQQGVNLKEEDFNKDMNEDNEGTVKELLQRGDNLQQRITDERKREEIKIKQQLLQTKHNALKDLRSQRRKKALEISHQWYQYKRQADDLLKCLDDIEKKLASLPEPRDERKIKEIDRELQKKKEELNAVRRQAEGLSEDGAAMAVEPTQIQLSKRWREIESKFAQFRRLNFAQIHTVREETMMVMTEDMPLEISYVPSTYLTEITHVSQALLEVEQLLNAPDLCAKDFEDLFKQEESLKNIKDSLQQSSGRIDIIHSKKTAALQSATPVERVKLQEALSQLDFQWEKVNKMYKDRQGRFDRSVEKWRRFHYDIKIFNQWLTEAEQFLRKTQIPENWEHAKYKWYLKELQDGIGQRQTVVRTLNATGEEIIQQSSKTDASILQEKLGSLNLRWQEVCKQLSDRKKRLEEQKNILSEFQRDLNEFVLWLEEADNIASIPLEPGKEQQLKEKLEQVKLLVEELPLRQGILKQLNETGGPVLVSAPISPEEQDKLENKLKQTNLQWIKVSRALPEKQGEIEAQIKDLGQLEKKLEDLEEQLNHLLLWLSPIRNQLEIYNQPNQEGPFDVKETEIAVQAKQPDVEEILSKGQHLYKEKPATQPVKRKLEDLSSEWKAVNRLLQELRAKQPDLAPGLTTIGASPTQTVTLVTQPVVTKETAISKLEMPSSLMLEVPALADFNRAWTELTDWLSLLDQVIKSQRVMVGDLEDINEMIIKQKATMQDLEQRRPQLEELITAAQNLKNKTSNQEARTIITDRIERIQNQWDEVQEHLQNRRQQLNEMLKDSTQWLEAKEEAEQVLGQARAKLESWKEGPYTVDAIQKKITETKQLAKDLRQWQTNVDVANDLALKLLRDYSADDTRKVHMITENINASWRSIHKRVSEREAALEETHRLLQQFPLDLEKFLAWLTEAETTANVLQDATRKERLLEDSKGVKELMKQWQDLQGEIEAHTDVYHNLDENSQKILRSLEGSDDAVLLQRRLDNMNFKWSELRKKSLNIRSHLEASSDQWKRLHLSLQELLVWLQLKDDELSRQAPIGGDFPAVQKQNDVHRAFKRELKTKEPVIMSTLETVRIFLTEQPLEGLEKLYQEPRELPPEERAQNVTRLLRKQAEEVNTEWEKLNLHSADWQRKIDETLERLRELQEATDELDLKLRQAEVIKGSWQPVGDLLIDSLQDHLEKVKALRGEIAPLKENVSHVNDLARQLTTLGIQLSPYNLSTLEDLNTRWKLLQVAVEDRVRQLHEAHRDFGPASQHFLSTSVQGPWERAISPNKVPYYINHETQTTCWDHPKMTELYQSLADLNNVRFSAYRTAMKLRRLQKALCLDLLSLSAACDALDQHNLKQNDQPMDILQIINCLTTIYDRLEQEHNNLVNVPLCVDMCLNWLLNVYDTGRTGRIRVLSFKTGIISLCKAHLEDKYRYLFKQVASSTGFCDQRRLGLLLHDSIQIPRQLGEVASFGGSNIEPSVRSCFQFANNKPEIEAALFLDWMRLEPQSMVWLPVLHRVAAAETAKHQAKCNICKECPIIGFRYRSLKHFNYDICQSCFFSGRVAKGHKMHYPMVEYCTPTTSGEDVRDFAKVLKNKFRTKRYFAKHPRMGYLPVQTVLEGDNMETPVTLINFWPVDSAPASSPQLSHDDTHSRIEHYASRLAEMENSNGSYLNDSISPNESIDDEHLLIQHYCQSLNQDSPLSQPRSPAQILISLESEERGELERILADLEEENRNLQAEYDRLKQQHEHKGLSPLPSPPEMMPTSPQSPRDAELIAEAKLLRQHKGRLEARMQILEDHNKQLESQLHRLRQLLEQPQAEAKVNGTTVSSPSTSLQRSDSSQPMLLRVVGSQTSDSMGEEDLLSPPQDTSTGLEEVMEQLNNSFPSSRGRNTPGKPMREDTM
Chain of UniProt P06400 (whole entry, unmodified, looked up): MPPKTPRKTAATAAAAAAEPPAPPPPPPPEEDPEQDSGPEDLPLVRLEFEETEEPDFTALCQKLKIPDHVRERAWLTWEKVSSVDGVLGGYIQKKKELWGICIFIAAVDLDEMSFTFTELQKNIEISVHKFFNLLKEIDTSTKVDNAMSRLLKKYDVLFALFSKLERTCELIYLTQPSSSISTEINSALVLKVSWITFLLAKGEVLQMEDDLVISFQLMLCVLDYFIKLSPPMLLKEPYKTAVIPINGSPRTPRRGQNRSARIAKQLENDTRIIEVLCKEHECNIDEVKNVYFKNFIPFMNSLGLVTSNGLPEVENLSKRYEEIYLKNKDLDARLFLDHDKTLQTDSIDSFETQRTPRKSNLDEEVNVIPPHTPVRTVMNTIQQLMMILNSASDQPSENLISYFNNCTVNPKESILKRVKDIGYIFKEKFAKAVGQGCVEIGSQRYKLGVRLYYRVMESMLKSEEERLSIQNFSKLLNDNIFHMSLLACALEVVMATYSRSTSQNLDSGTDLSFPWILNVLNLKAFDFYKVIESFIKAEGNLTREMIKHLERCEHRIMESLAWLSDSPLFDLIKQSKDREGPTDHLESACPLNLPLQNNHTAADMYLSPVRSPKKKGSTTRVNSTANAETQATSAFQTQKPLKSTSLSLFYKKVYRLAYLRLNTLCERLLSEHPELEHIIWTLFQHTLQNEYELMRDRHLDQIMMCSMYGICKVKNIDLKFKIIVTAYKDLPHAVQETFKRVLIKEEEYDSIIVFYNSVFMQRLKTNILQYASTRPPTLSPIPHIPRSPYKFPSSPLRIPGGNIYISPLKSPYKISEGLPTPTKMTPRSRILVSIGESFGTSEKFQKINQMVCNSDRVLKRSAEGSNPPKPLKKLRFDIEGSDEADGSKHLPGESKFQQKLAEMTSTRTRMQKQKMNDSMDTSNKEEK
Chain of UniProt P09119 (whole entry, unmodified, looked up): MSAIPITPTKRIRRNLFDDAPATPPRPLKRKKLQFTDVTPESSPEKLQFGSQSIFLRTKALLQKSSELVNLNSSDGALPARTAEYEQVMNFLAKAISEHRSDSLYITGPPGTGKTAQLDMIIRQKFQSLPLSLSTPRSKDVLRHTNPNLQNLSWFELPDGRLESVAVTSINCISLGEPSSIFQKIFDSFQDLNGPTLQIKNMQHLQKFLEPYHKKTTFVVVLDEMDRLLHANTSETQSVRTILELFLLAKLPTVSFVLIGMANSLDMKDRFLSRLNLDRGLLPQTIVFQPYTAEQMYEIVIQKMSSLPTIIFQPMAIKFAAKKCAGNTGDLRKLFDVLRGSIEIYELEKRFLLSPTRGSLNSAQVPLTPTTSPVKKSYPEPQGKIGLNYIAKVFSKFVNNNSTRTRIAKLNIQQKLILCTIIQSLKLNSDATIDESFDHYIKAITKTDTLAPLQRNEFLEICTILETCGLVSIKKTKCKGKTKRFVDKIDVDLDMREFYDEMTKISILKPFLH

`CCND3/CDK6 fusion, linker (Homo sapiens)` has a Rb phosphorylation of 30 fold (RB1 F897A/L901A/R908A (Homo sapiens, UniProt P06400); in vitro kinase assay; reference: wild-type Rb, higher = greater difference).
For `DTNA alpha-dystrobrevin-1`, the co-IP signal was 2.2 fold and 3 fold and 2.7 fold and 3.3 fold (DMD 2980-3685 (Homo sapiens, UniProt P11532); co-IP; reticulocyte lysate; not purified; reference: control without antibody, higher = more co-precipitation).
For `{DOTA}-TNYLFSPNGPIARAW (peptide; N-terminal DOTA; DOTA = O=C(O)CN1CCN(CC(=O)O)CCN(CC(=O)*)CCN(CC(=O)O)CC1)`, the koff was 0.00256 s⁻¹ (EPHB4 16-539 (Homo sapiens, UniProt P54760); SPR; peptide).
With `ITGB1 whole (Gallus gallus, UniProt P07228)` the attachment was 3% (laminin (Mus musculus, UniProt P19137); neuron attachment; E14 CG neurons; added: JG22 50 µg/mL; reference: poly-D-lysine, higher = more attachment).
Under “association rate constant”, `B1 (Spy)` is recorded as 4.5e+06 M⁻¹ s⁻¹ (Im7 L18A/L19A/L37A/H40W (Escherichia coli); stopped-flow fluorescence; pH 7.5, 22 °C, NaCl 25 to 300 mM, high-salt limit).
For `B2 (Mybbp1a)`, the relative binding was 2 fold (histone H3 peptide fragment (Homo sapiens); pull-down; lysate; 4 °C; reference: acetylated and unmodified peptides, higher = more binding).
The β-galactosidase activity of `ACTN1 fragment (Homo sapiens)` is reported as 0.01 Miller units (FADD (Homo sapiens, UniProt Q13158); two-hybrid; higher = stronger interaction).
For `CALM1 T26C, Alexa Fluor 568 at C26 (sequence not shown)`, “donor fluorescence lifetime” read 2.4 ns (Camk2d T287A (Rattus norvegicus); FRET; 100 nM).
`Kcnab1 (Rattus norvegicus, UniProt P63144)` — result for “steady-state current increase”: 84% (Kcna1 (Rattus norvegicus, UniProt P10499); inside-out patch electrophysiology; added: cortisone 500 µM; higher = more inactivation relief).
The ΔH of `PHF1 fragment (Homo sapiens) (sequence not shown)` is reported as -3.42 ± 1.44 kJ/mol (H3C1 fragment; ITC).
`SERPINC1 R45E/R46E/K114E/R129E (Homo sapiens)` gave a k2 of 62 M⁻¹ s⁻¹ (coagulation factor IXa; steady-state kinetics; room temperature, added: pentasaccharide H5).
`ACTC1 R312C (x)` has a Vmax of 28 µM/s (heavy meromyosin HMM (Oryctolagus cuniculus); myosin ATPase activity, steady-state kinetics; added: ATP 2 mM).
`Rnf220 (Mus musculus, UniProt Q6PDX6)` gave a polyubiquitination level of 4.72 (Gria2 (Mus musculus, UniProt P23819); GluA2 polyubiquitination; HEK293; reference: control without RNF220, higher = more ubiquitination).
Under “apparent Tm reduction”, `IDEYFSEQPLKNLAASTSEEQIEKCFIIENISTIA (IFNAR1 478-512 L491A/L492A (Homo sapiens, UniProt P17181))` is recorded as greater than 5 °C (TYK2 23-583 (Homo sapiens, UniProt P29597); differential scanning fluorimetry; peptide).
Under “reduction of isopeptide formation”, `UBE2D3 (Homo sapiens, UniProt P61077)` is recorded as 30 % reduction (MYCBP2 4378-4640 C4520K/I4392A (Homo sapiens); E2-E3 isopeptide formation; single turnover).
The IC50 of `5FAM-GPLGVRGK(TAMRA)[AEEA]GRGDS-NH2 (MMP-cleavable RGD peptide; SMILES CC(C)C[C@H](NC(=O)[C@@H]1CCCN1C(=O)CNC(=O)c1ccc2c(c1)C(=O)OC21c2ccc(O)cc2Oc2cc(O)ccc21)C(=O)NCC(=O)N[C@H](C(=O)N[C@@H](CCCNC(=N)N)C(=O)NCC(=O)N[C@@H](CCCCNC(=O)c1ccc(-c2c3ccc(N(C)C)cc3[o+]c3cc(N(C)C)ccc23)c(C(=O)[O-])c1)C(=O)NCCOCCOCC(=O)NCC(=O)N[C@@H](CCCNC(=N)N)C(=O)NCC(=O)N[C@@H](CC(=O)O)C(=O)N[C@@H](CO)C(N)=O)C(C)C; N-terminal FAM, TAMRA on Lys, aeea linker, C-terminal amide; 5FAM = O=C1OC2(c3ccc(O)cc3Oc3cc(O)ccc32)c2ccc(C(=O)*)cc21; AEEA = NCCOCCOCC(=O)O; TAMRA = 5-carboxytetramethylrhodamine, CN(C)c1ccc2c(-c3ccc(C(=O)*)cc3C(=O)[O-])c3ccc(N(C)C)cc3[o+]c2c1)` is reported as 0.272 ± 0.064 µM (ITGAV/ITGB3; competition with ligand, ELISA; peptide; pH 7.6).
For `B3 (CKS1)`, the KM was 6 fold (Cdc6 2-29 P8A, pT7 (UniProt P09119); steady-state kinetics; reference: wild-type peptide, higher = weaker substrate affinity).
`Ac-NATEEM-NH2 (PLCB3 residues 585-590, N-acetyl, C-amide (Homo sapiens); N-acetyl, C-amide)` gave a reduction of 32% (PLCB3 (Homo sapiens, UniProt Q01970); ACh-induced Ca2+ level; peptide, HEK293; 100 µM, 1 h; reference: vehicle, higher = stronger reduction).
`Tnfrsf11b CRD (Mus musculus)` has a relative off-rate of 20 fold (Tnfsf11 162-316 (Mus musculus, UniProt O35235-1); SPR; reference: RANK, higher = slower dissociation).
`B4 (BDKRB1)`: “loss of surface receptor” 50% (BDKRB2 (Homo sapiens, UniProt P30411-2); radioligand binding; higher = more loss).
For `B5 (E2F1)`, “E2F1 bound to pRB” read 1.6 fold (RB1 (Homo sapiens, UniProt P06400); co-IP; IMR90, lysate; 16 hours, E1A expressing, added: doxorubicin 2 µM; reference: untreated cells, higher = more bound).
With `B6 (pdeA 2-130)` the half-life was 1.37 h (pdeA R69A (Caulobacter crescentus, UniProt Q9A310); degradation by CpdR/ClpXP; after subunit exchange).
For `B7 (Mesd)`, the invasion inhibition was 60 % inhibition (LRP6 (Homo sapiens, UniProt O75581); Matrigel invasion assay; MDA-MB-231, BT549; 2 µM, 4 µM).
`ETDKE[pY][pY]TVKD (JAK1 1029-1039; pY1034/pY1035; pY = N[C@@H](Cc1ccc(OP(=O)(O)O)cc1)C(=O)O)` — result for “molecule per partner”: 0.9 (PTPN6 243-530 Q252R/C453S (Homo sapiens, UniProt P29350); ITC; peptide; pH 8.0, 25 °C, NaCl 100 mM).
For `Por (Rattus norvegicus, UniProt P00388)`, “rate constant k1” read 2.5 s⁻¹ (CYP2B4 (Oryctolagus cuniculus, UniProt P00178); first electron transfer, stopped-flow; nanodiscs; 25 °C, fast phase, anaerobic).

Excerpt of the above:
The β-galactosidase activity of `ACTN1 fragment (Homo sapiens)` is reported as 0.01 Miller units (FADD (Homo sapiens, UniProt Q13158); two-hybrid; higher = stronger interaction).
For `CALM1 T26C, Alexa Fluor 568 at C26 (sequence not shown)`, “donor fluorescence lifetime” read 2.4 ns (Camk2d T287A (Rattus norvegicus); FRET; 100 nM).
